Measured values gathered from unrelated publications.
Parts stem from different laboratories: compare values within a part only. Positions count from the first letter of the parent shown.

Set 1
Target: CCNA1, cyclin fold, Cln2 fusion (human)
Technique: yeast growth competition, sequencing
Medium: yeast
Setting: weak parent motif
Reference: not given
Reading: higher = stronger binding
Starting sequence: CDC6 docking peptide (human); TLKGRRLVFDNQL; partner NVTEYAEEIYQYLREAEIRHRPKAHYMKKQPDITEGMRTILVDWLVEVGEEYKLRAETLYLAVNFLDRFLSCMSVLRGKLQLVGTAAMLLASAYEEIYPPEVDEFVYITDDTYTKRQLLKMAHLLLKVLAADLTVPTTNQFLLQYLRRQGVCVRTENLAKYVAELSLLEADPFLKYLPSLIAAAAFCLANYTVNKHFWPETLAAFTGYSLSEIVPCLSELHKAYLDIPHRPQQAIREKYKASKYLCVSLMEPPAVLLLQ
Variant	normalised enrichment score
TLKGRRLVFWNQL [D10W]	-0.026
TLKGRRLVFDNQN [L13N]	0.323
TLKGRRLHFDNQL [V8H]	0.577
TLKGGRLVFDNQL [R5G]	0.123
TQKGRRLVFDNQL [L2Q]	0.14
TLKGRRLVSDNQL [F9S]	0.142
SLKGRRLVFDNQL [T1S]	0.184
TLKKRRLVFDNQL [G4K]	-0.222
TLKGRRLYFDNQL [V8Y]	-0.0463
TLRGRRLVFDNQL [K3R]	0.294
TLKGRRLVFDNDL [Q12D]	0.325
GLKGRRLVFDNQL [T1G]	0.495
TMKGRRLVFDNQL [L2M]	0.0475
TLKGRRLAFDNQL [V8A]	-0.184
TLKGRRLVFDNQY [L13Y]	0.218
TLKGRELVFDNQL [R6E]	-0.211
TLKGRRLVFDNPL [Q12P]	0.0734
TDKGRRLVFDNQL [L2D]	-0.0604
LLKGRRLVFDNQL [T1L]	0.214
TLKGFRLVFDNQL [R5F]	0.175

Set 2
Target: RING finger protein unkempt homolog, zinc fingers 1-6, GST-SBP tag (UNK, Homo sapiens, UniProt Q9C0B0, residues 30-357)
Sequence of UniProt Q9C0B0 (30-357, looked up): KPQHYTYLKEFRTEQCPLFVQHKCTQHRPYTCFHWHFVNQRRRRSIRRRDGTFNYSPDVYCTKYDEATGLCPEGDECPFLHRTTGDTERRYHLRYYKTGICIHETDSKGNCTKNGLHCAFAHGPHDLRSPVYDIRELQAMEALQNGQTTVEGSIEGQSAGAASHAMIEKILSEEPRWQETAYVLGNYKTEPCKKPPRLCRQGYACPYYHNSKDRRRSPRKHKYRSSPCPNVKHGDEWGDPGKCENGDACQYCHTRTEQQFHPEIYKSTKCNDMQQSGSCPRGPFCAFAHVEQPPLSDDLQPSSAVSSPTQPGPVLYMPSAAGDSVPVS
Technique: RNA Bind-n-Seq
Molecule type: RNA
Medium: in vitro
Tested at: not given
Setting: RNA with constant flanks, human-mouse chimeric sites, ends assumed
Reference: input RNA pool
Reading: higher = stronger binding
Constant ends, left off below: GGGAGUUCUACAGUCCGACGAUC … CAACAGAGGAUUGAGCAUCA
Sequence	bound/input enrichment [ratio]
AGGAGGAGAUUAAAGGGUGAGAGUGGGGUGGAAGACUGUGUCAUGGCUCUGGAGACACUGUUCAGUGUCCUGCUUUCUCUUUGCAGACUGAUGGCCCCUUACACGCCCUUUCUGACUGAG	0.0846
AAUUUCCGCAACUGUUUUUUAGACAUUCACAUCAGACGCCUUACUACCCUGGCCACAUUCUAGGUUUGUGUUAUUUCUCAGCUAUGGAUAUGAUCAAAUGAGAACACUGCUUAACUAAUG	0.643
ACUCUUGACUCUUUCCAUCCUCUUCCUUUCCCUCUUGAUAUUCAAGGCCAUGAAUCCCAAAAUAACAGUCUUAGUGGGAGGCUAGCAAACAGAGGUGGAAUAAAUCCACCCCAGUGUCUC	0.555
GGAUUCCGCUUCCGGUUCCGUUGGGCUCGGUUCUCUCCUGAGCUACGGUCCCUGGCACUCUCAAUCCGCCAUCCAACAAACAUGGAUCAGGUAAUGCAGUUUGUGGAGCCCAGCCGGCAG	0.0731
GGACAUCUUGUCAGGAUUAUUUCCCGUGUGAAACAAGUGAACACUCUGAUACACUUCAUCUGCUUGUACAUCUGUAUGAUAGAGAAAUGUAAAUAUGUUAAUCCAAGCAAUGUGUCACUU	0.194
CGCUUGGAUGAGGCGGGUGUUACUGAUGAAGUGCUAGAUUCUGCCAUGCAAGCCUUCCUUCUGGAGGUCAUUGUUAAACAUGGGGAGCCGGCACCUUAUUUAUGUAAUAAAGAUCCUUUU	0.139
CUUAAUGAUAUUUUGAGUAAAGGAAGCAAGCUAAAAUGUCUGCUUUUGGUACAACACGCAUUAAUAAAAGGUUAAGUUUUGUUUUCCACUGAAGUACUAUUUAACAUCUCAGAAAAAAAC	0.114
CACACACUCUUCUGCGGGACCCUCAUCUUGCAGGCCCGGGCCUAUGUGGGACCCCGUGUCCUGGCAGUGGUGACCCGCACAGGGUUCUGCACGGCAAAAGGGGGCCUGGUGAGCUCCAUC	0.0765
CCCUCCCCGGGCCACCCACCCCUCCCGCUCCCAGCGGAGAGCAAGGUUUUCUUCUUAUUUCAUAGCAAAUAAGAAAAAUGUUCUACGCACAUUUUGUCCUCAGUAAACGAGGGCCUCUGG	0.261
UCUUUAAAAAAAAAAUUACCUUUUCUGACAGUGCUUUCCCUCCCAUAGAUCCACGUUCACACUAGAAGAGCAAAGGCUUUGCACGGAGCUCAAACAUCUGAUGAAGAAAGAUUUCUGAGA	1.56
UGACAAGGGCACUGCAGGGCCAUGCCUUUCCUUGACAUACAGAAAAAGCUGGGCAUCAGCCUGGACCGAUGGUUGACGUUCCUAAGCGCAGAACAGCCCUAUAAGAACGCCGCUCGGUGC	0.0694

Set 3
Target: RNA binding protein fox-1 homolog 2, RRM domain, GST-SBP tag (RBFOX2, Homo sapiens, UniProt O43251-10, residues 100-194)
Technique: RNA Bind-n-Seq
Molecule type: RNA
Medium: in vitro
Tested at: 365 nM
Setting: natural RNA segment, single round, ends assumed
Reference: no-protein control
Reading: higher = stronger binding
Constant ends, left off below: GGGAGUUCUACAGUCCGACGAUC … UGGAAUUCUCGGGUGCCAA
Target sequence (chain): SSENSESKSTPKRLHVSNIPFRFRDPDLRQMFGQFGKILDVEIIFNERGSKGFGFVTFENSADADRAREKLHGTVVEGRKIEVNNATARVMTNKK
Sequence	RBNS enrichment (R)
UGGAAUUGUUGGAAGAAGAGUUUGCAGAAGGUUAGGAAUGGGUAGAUAGCUAAGUCCUAAUCUAUGGGUACAUUGUUGUGUCCCAAACCAAAAUUUUCCUUAUCCACAAU	0.351
AAUUAUUUGUGUUUUUUGAAAUGCCUUCCGUAGGUAACCGACAGUCUUAAGCAGUGCUCCACUAACGGUCACUCAGGGACCACCUACCCAGAACAGACGGGGAAUUGAAA	0.568
UUCCGUCUCUGUGCUUGCUAAUAGUUUCACAAGUGGCUUGACUUUUUUAGAAGUAUUAUGUGGUAUUUUACUGUGUAUCACUUCUGUGGUAAACAUGUGAAGUCCUUUGG	0.304
CAAAGACCACCAAACGCAGGGUGGACUCUGCUCAUUAUUCUUUGACCCAGAAAGACUGGAGAAGGUAUGUGCUUUAAGUGCUGCUCUACCUGAAAAGAAAUCCUUUAAAU	0.297
UUCCAAGUGUGGUUACAAAUGAACCCAUGGAAUGAUGACUUCAUGUUCUUCUCGUGGGUUUGUGCCGUGCUGCUUUCCAAAUAGGUAUUGAAUUUAUGCAUUAGUCUGGU	0.288
CAAGGCCAUUACAUCCCACAAACCCAAAUACAAAGCAGCUGACUUCCCUGGAUCUUCCCCCCACUCCUCACACCUCACAUGUCCCAGGAGCUGCCUUCAUUCAGGCGGGU	0.645
CUUUCCCCCAGCCGCACGGGUCCCAGGCCCCAGAGAAGAUGAGUCUAUGGCAUCAGGUUCUUAAACCCAGGAAAGCACCUACAGACCGGCUCCUCCAUGCACUUUACCAG	1.06
CCUGUUCGGCCUCCUGUCUAUCAGUGAGGCAUCUCUGACUGUUUCUUCUACUGCUUUUCAGUUCCCUUCCCUGCUGUUCUAUUUCCUUUGAGUGUAAAGACUCACAGGUG	0.31
CCCUAGAGUCAUGCCUGGAUCCACAACUCCACAGGUAUCUGCAGCAUUUUCUACCUGGCCCUAUCGCUGAGAGCCCCUCCCCAUGGCUCACUGAGGAGCACUCAGCCAGC	0.735
UGGAGUUCCUAUCCCCUUUGAGGCUUACAAUCUUUCCUCCUUUUCUUCCAUAAGAGUUCCCAAGCUCUGUCCACUGUUUGGCUAUGGGUGUCUCUGUCUGAGUUAGCUGC	0.693
AUGAAUUGCAAUAACCAGCUUCACACAAGCAUAACUGAUAAACGCGAGUGCUAUUGUAGUCUUGGCAAGUGAGCCAAGAACCUAGGAGCAGGGCCAUUCCUACUGAAGGA	0.379
UGUUUUGAUUCUUUGUUGUUGUUUUUAUUUUAAAAGGCACAAACUCUAGAUAUUAGUUGAAUGUUGAGGCUUUAACUUUUUCGGUGUCUUUCUACAACUGUGUUCUGUGA	0.588

Set 4
Target: Sal-like protein 4, full length isoform A (SALL4, Homo sapiens, UniProt Q9UJQ4, residues 1-1053)
Sequence of UniProt Q9UJQ4 (whole entry, looked up): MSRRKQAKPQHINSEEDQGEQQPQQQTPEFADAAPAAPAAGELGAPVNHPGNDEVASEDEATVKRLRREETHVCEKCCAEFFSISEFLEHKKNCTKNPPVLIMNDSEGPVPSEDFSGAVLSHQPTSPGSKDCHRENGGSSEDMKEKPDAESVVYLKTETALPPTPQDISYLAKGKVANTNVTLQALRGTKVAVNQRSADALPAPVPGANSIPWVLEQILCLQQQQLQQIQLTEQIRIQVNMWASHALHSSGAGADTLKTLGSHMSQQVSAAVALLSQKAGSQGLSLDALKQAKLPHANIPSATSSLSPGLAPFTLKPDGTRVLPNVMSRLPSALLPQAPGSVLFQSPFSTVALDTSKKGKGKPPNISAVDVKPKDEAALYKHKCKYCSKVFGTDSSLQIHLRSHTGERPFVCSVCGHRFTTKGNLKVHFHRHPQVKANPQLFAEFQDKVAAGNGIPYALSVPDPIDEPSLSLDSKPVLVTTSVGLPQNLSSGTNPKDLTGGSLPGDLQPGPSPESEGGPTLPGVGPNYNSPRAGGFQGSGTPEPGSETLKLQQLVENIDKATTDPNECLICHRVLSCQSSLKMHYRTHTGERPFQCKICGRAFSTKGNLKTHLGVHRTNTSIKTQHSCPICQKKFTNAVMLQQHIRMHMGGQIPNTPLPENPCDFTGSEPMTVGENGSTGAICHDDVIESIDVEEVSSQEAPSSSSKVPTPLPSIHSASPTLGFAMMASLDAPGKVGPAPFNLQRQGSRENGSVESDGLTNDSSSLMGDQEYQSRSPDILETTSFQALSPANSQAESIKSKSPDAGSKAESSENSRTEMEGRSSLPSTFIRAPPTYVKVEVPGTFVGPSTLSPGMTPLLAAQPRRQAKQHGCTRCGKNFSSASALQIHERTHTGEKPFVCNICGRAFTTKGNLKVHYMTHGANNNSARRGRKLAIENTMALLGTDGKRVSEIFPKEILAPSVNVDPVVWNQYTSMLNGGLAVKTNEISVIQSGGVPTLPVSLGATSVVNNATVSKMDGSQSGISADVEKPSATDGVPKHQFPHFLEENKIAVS
Technique: universal PBM
Molecule type: double-stranded DNA, one strand shown
Medium: in vitro
Tested at: 600 nM
Setting: 8-mer, flanks averaged, mean of replicates
Reading: higher = stronger binding
Sequence	E-score
TGGCTACA	0.149
CTAACATC	-0.0315
ATGTTGTG	0.228
GTTTCTGA	-0.0364
CCTCGGTC	-0.382
AAATGGTT	0.165
GGCCCATA	-0.0908
CGCCTACA	-0.0558
CTTGAGAC	-0.0692
GAGCGATC	-0.229
GAGTACCC	-0.238
TAGGGATA	0.127
ATCGCCTA	-0.124
GTACGGCA	-0.136
AAATGATA	0.396
AAATTTGG	0.113
CCGTGGCA	-0.187

Excerpt of the above (set 3):
Sequence	RBNS enrichment (R)
AUGAAUUGCAAUAACCAGCUUCACACAAGCAUAACUGAUAAACGCGAGUGCUAUUGUAGUCUUGGCAAGUGAGCCAAGAACCUAGGAGCAGGGCCAUUCCUACUGAAGGA	0.379
CAAAGACCACCAAACGCAGGGUGGACUCUGCUCAUUAUUCUUUGACCCAGAAAGACUGGAGAAGGUAUGUGCUUUAAGUGCUGCUCUACCUGAAAAGAAAUCCUUUAAAU	0.297
CCCUAGAGUCAUGCCUGGAUCCACAACUCCACAGGUAUCUGCAGCAUUUUCUACCUGGCCCUAUCGCUGAGAGCCCCUCCCCAUGGCUCACUGAGGAGCACUCAGCCAGC	0.735
CUUUCCCCCAGCCGCACGGGUCCCAGGCCCCAGAGAAGAUGAGUCUAUGGCAUCAGGUUCUUAAACCCAGGAAAGCACCUACAGACCGGCUCCUCCAUGCACUUUACCAG	1.06
UGUUUUGAUUCUUUGUUGUUGUUUUUAUUUUAAAAGGCACAAACUCUAGAUAUUAGUUGAAUGUUGAGGCUUUAACUUUUUCGGUGUCUUUCUACAACUGUGUUCUGUGA	0.588
UUCCAAGUGUGGUUACAAAUGAACCCAUGGAAUGAUGACUUCAUGUUCUUCUCGUGGGUUUGUGCCGUGCUGCUUUCCAAAUAGGUAUUGAAUUUAUGCAUUAGUCUGGU	0.288
